Published values collected from several papers.
A part holds a random share of what one study measured.

Series 1 — method: aptamer microarray, sandwich; molecule type: DNA with 2'F-ANA; sample: in vitro; concentration: 200 nM; added: Cy3 exosite-II aptamer, 400 nM; reading: higher = stronger binding; strand: GGTTGGTGTGGTTGG
Target: Prothrombin, mature alpha-thrombin (F2, Homo sapiens, UniProt P00734)
Setting: whole 15-mer aptamer, many near background
Modification | mean fluorescence intensity
2'F-ANA at 1 2 3 6 10 11 12 | 77.3 a.u.
2'F-ANA at 1 2 4 7 8 9 10 11 13 14 | 43.8 a.u.
2'F-ANA at 5 6 7 9 11 12 | 125 a.u.
2'F-ANA at 2 3 6 8 11 15 | 626 a.u.
2'F-ANA at 4 5 9 12 15 | 138 a.u.
2'F-ANA at 4 7 9 | 338 a.u.
2'F-ANA at 1 2 3 4 5 8 9 10 11 14 15 | 46.1 a.u.
2'F-ANA at 1 2 3 4 5 10 14 15 | 49.3 a.u.
2'F-ANA at 1 3 4 5 8 9 11 12 | 115 a.u.
2'F-ANA at 1 2 4 9 10 12 13 15 | 61.3 a.u.
2'F-ANA at 2 5 6 7 9 13 | 127 a.u.
2'F-ANA at 1 2 3 5 7 8 9 11 12 14 15 | 47.4 a.u.
2'F-ANA at 1 2 4 5 7 9 10 14 | 45.7 a.u.
2'F-ANA at 2 5 12 13 14 | 47.5 a.u.
2'F-ANA at 1 2 4 5 7 9 10 11 15 | 53 a.u.
2'F-ANA at 4 5 6 9 10 12 13 | 57.7 a.u.
2'F-ANA at 2 4 5 6 9 11 12 13 14 | 48 a.u.
2'F-ANA at 1 2 5 10 11 12 13 15 | 74.3 a.u.
2'F-ANA at 2 4 6 9 10 11 15 | 71.3 a.u.
2'F-ANA at 1 2 5 6 10 11 14 | 42.5 a.u.
2'F-ANA at 1 2 4 6 12 13 15 | 170 a.u.
2'F-ANA at 3 6 7 9 11 13 14 15 | 506 a.u.
2'F-ANA at 1 3 4 5 7 8 12 15 | 132 a.u.
2'F-ANA at 2 4 6 7 11 15 | 227 a.u.

Series 2 — method: protein-binding microarray; molecule type: double-stranded DNA, one strand shown; sample: in vitro; concentration: not given; reading: higher = stronger binding
Target: Protein C-ets-1 (ETS1, Homo sapiens, UniProt P14921, residues 1-441, Y397A, full length assumed)
Setting: k-mer, scored over probes, only values ≥0.25
Construct (chain): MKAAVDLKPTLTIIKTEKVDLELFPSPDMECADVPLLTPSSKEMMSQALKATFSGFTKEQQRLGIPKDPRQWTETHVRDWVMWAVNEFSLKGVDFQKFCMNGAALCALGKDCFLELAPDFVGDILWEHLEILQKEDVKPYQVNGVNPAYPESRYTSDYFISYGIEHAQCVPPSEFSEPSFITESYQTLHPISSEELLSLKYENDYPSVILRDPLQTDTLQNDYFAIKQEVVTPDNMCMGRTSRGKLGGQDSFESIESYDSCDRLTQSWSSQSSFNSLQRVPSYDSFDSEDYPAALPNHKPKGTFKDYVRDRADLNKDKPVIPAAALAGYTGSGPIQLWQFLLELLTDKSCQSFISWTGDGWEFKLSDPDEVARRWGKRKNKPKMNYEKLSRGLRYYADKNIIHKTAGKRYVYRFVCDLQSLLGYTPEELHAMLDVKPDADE
Strand | E-score
CATTGCAG | 0.273
CGGGGCGA | 0.257
ACATGACG | 0.262
GTTAACAA | 0.268
GTGTCAAA | 0.279
GCCCCGCC | 0.379
CGACACGA | 0.305
ATTTTGGC | 0.267
ACGGATAT | 0.282
ATCCCCGC | 0.27
TGACGTCA | 0.363
ATGCCACA | 0.253
TTACAAAA | 0.325
CCGGAAAC | 0.434
AATGGCAA | 0.285
GGAAACAC | 0.319
GCAGACAA | 0.337
ATGGCAAT | 0.291
ATATACAA | 0.261
CAACGTCG | 0.252
ACCCCACC | 0.311
CCGCACAG | 0.266
GCAAAACC | 0.254
GGGCGCCA | 0.251
GTATGTCA | 0.306

Series 3 — method: RNA Bind-n-Seq; molecule type: RNA; sample: in vitro; concentration: 100 nM; relative to: input RNA pool; reading: higher = stronger binding
Target: RING finger protein unkempt homolog, zinc fingers 1-6, SBP tag (UNK, Homo sapiens, UniProt Q9C0B0, residues 30-357)
Chain of UniProt Q9C0B0 (30-357, looked up): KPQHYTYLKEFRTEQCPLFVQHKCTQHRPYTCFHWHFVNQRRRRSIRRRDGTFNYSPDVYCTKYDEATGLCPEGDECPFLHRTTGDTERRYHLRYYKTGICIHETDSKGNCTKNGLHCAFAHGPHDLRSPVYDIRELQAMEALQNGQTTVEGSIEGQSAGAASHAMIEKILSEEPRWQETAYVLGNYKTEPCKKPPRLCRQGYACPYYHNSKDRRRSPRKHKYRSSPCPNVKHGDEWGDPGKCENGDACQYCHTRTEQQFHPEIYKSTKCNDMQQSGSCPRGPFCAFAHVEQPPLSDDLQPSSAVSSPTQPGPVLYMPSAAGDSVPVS
Setting: RNA with constant flanks, vertebrate orthologous sites, ends assumed
Constant ends, left off below: GGGAGUUCUACAGUCCGACGAUC … CAACAGAGGAUUGAGCAUCA
Strand | bound/input enrichment [ratio]
UGUGAGGGUCUACUGACCACUCACUGUUAAUGUCUGGUAUCUGUAAACACCUUUUGUUCUUAGUCUUUUUCUUGUAUAAUUGAUGUUCUUUAAAAUUGUUAAUGUAUAACAGGGCUUAUG | 1.82
GGACUGGGGGGUGGUGGGUGGGAAGAAGAUGUAUGUAUGUUAUUGGCAUUUUUAAGUGUUCAGAGGUGGGUUUUUUUUCCCCCCUUUCUGUUUUGUUUUUUUUUUUCCCUUCAAUUGAAU | 0.424
UUGGACCUCCUGAACUAACUUUCGAGCUGUGGCUGUUUUUGAUAGUGAUUUCAUUUUCUUUAGGACUUUCCCAUUUCCUGCCUUCUCUCCUCCUGUUCCCAAGGCUUGACUUGUGGAUGG | 0.708
AUCUGACUGCUGGAUGAAGACUGUUCCAAGUUAUAACCAAACAAAUAGCUCCAUGGACUUUAGAAAUUAUAUGAUGAGAGAUGAGAAUCUAGAGCCACUGCCCAAAAACUGGGAGAUGGC | 0.72
UGCUCGCCUUAGAGCAGUUCCCCCCACCCACCCACCCCUUUUUUUCCUUCAUUUUGGUUUCAGGGCUGGGUGGGUUGUGGCACACACCUCUGAGGCCAGAGCUGUCUGGUUCACCUUGUG | 0.181
UUUAAAUCUCUUCUCCCCUGUCCUGAUUUUAAAAGCCCCGCUUUUUUAAUUUUCUUUUUUUAGGCAUAUGUAGUAAUAUUAGAAACAUUUAAUUUGGGAAACUUUGAUUCUUAAAAGCGA | 0.712
GGAAAGUUACAGAUCAGACAGUGAAAGUAGGAGCACAGGAUCCUGGUUGUCAUCCUCUUUGAGGAACAGAUGUACACCUCUCUUUUCCAGAAGAAGAAGAGAAGGAAGAGAUGAAUCUGC | 0.389
GGGACGCUUUGACGUAAAAAUUGAAGUUAAGAGCUGAUCACAAGCACAGAUCUUUCCCACUAGCCAUUUAAAAAAGUUAAAAAAGAUACAAAAACCUACUAGUCUUGAACAAACCGUAAU | 2.64
UAUCUUUAGGAUGAAGCUCUUACACCAAGUGUCACGAGUCUGGAGAACAGAUGGGUUGAGUAGUUGUUCUUAUAAAUUAGUAUCUGUGGAACACAAUCCUUUAUAUAUCAACAUCACAGU | 0.907
AGCAAAUAAUAAUAAUAAUAAUUCUAGUUUUAACUAGCAACAGUGAUUACUAGUCUGUGCUAGAAAGGAUCAGUUACACCUUUCAAGUUUUCUCCUUUGUCUGCUACCAGAAACCAAUCA | 1.04
UUCCACACCACUGGGUUGAAAGAUAAAGAUGGAACAGCCAUUGUAGCUAGAAGGAGUCCAUUUUUGUUCCCAUUUGCGUCAUCAUCCCCAGACCAAGGUGGUAGCAGAUUUCUCCCUCCC | 0.53

Series 4 — method: RNA Bind-n-Seq; molecule type: RNA; sample: in vitro; concentration: 365 nM; relative to: no-protein control; reading: higher = stronger binding
Target: RNA binding protein fox-1 homolog 2, RRM domain, GST-SBP tag (RBFOX2, Homo sapiens, UniProt O43251-10, residues 100-194)
Setting: natural RNA segment, single round, ends assumed
Constant ends, left off below: GGGAGUUCUACAGUCCGACGAUC … UGGAAUUCUCGGGUGCCAA
Target sequence (chain): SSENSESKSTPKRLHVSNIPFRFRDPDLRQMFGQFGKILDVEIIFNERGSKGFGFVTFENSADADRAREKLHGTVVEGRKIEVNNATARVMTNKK
Strand | RBNS enrichment (R)
GGCAAAGGUCACAGUGAUGCAAAAGACAAAACUGAUGUCCUUAUCCUUAGACAAUUAACCACCAAAUUCCCUGGGGUUCAUUGCCAUGCAGUUCAUUUCCCACUAACCAU | 0.236
UUCCUUGUCUUAGUAACAUUGUACAAAUAGUGGCUUAUUUUUAAGUUGUAAUGCCUCCUGAUGGAUAUAAUUUUGUGCUUGUAUUUAAGAUUAAAAGUUGAAUAAAUAAC | 0.369
AGUGAUUUCAAUUGCACCAUGACUUCUUCACUAAAACCACAAAGUCCUGCUUAAAACUAUGGAAAACCUAACCUGAUUAGAGCCUUGACUAUUUUGAAGAUUAAAUGCAC | 0.738
UCCCUUCUGAAGCAGAGAAGCCUCCAUGGUCACGAAGCAGCGUUGUGCUGUGUGUCCCUCGCAAGAAGCACAGGAAAGAGAAGUUUCUUUAGUAGCCACUAGACAACCAC | 0.289
UUAAGAUAUUUUCUAAUGAUUUUAAUUUUAGAGAGUACCUUUUCAUUCUGUGUGUUACAGAGAAGUACUGAAAAGUUAAGGACACUUGGGGGCUACUUUUUUCCCUCUAA | 0.354
AAUGUUCCCUCCCAUCUCAGGCCAGCGCCAUGUCGAGGCAUCUUCAGUCCACCCCUGCCUAAGGCUCAGGCUACCUGCUUUGGGGCACAGCUUCCUGGUACUCACAGCAU | 0.611
GGAAGCUCUCCGUUGUCUUUCAGUGAUACCCUCUUCCUUGCUUAAUUUGCUCUGAAAAGAAGCACAGUUGGGUAGACGAGGCCCGUGGAUGUCAUUUUUUUUUUUCUGGG | 0.32
ACAGAAAGCCUCAGCUACCUCAGCAUUUUGUUGAUGCUUAUUUAGAUGAGAUGGAUCAAGGUAAAAAUGACCCAUCAUCUACUUUCUCCAAAGAAAACCUAAUUUUCUCA | 0.342
UCUCACUUUCCUCAUUGGCUUAUUAAUUAGCUCCUUACUUUGUUGCCUUUGCUUCAAAUGGUUUGAGUCACCAACAGACUUGUUUGGGAGUGGCCUCAGUAAAUGACAGA | 0.418
CCUGCAAGUGAUGCUACAGCUUCCAGCCCGUUGCCCCACUCAUCUGCCGCCUUUGCUUUUGGUUGGGGGCAGAUUGGGUUGGAAUGCUUUCCAUCUCCAGGAGACUUUCA | 0.287
UAUUAACAGCUUAAUUUUUCUCUUUUACUCCAUAGGAACUUAUUUUAAUAGUAACAUUAACAACAAGAAUACUAAGACUGUUUGGGAAUUUUAAAAAGCUACUAGUGAGA | 0.379
CCUUACCCCUUAGCCUCCCUGAAAAUGUUUUUCUGCCAGGGAGCUUGAAAGUUUUCAGAACCUCUUCCCCAGAAAGGAGACUAGAUUGCCUUUGUUUUGAUGUUUGUGGC | 0.684

For quick reference, copied from above (series 4):
Strand | RBNS enrichment (R)
AGUGAUUUCAAUUGCACCAUGACUUCUUCACUAAAACCACAAAGUCCUGCUUAAAACUAUGGAAAACCUAACCUGAUUAGAGCCUUGACUAUUUUGAAGAUUAAAUGCAC | 0.738
UCCCUUCUGAAGCAGAGAAGCCUCCAUGGUCACGAAGCAGCGUUGUGCUGUGUGUCCCUCGCAAGAAGCACAGGAAAGAGAAGUUUCUUUAGUAGCCACUAGACAACCAC | 0.289
UUAAGAUAUUUUCUAAUGAUUUUAAUUUUAGAGAGUACCUUUUCAUUCUGUGUGUUACAGAGAAGUACUGAAAAGUUAAGGACACUUGGGGGCUACUUUUUUCCCUCUAA | 0.354
AAUGUUCCCUCCCAUCUCAGGCCAGCGCCAUGUCGAGGCAUCUUCAGUCCACCCCUGCCUAAGGCUCAGGCUACCUGCUUUGGGGCACAGCUUCCUGGUACUCACAGCAU | 0.611
GGAAGCUCUCCGUUGUCUUUCAGUGAUACCCUCUUCCUUGCUUAAUUUGCUCUGAAAAGAAGCACAGUUGGGUAGACGAGGCCCGUGGAUGUCAUUUUUUUUUUUCUGGG | 0.32
ACAGAAAGCCUCAGCUACCUCAGCAUUUUGUUGAUGCUUAUUUAGAUGAGAUGGAUCAAGGUAAAAAUGACCCAUCAUCUACUUUCUCCAAAGAAAACCUAAUUUUCUCA | 0.342
UCUCACUUUCCUCAUUGGCUUAUUAAUUAGCUCCUUACUUUGUUGCCUUUGCUUCAAAUGGUUUGAGUCACCAACAGACUUGUUUGGGAGUGGCCUCAGUAAAUGACAGA | 0.418
